Measurements from different studies.
Numbered parts are unrelated; each lists some results of a single study. Several values in a cell are separate wells, animals, samples, runs or records.
UniProt P36897, sequence (whole entry, looked up): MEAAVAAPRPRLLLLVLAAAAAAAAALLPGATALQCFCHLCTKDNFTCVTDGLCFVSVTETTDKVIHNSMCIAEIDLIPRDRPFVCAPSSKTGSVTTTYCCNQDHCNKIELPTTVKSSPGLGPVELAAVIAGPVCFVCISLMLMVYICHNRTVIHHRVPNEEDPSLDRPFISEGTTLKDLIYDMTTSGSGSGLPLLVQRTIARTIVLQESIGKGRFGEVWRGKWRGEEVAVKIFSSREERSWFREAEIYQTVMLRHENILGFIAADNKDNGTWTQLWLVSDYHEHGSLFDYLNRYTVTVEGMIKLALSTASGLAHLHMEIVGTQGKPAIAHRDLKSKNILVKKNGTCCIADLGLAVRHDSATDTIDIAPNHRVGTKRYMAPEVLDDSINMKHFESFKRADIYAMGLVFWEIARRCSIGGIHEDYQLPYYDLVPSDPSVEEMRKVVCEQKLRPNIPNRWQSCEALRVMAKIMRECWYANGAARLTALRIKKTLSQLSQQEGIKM
UniProt Q9BYT3, sequence (whole entry, looked up): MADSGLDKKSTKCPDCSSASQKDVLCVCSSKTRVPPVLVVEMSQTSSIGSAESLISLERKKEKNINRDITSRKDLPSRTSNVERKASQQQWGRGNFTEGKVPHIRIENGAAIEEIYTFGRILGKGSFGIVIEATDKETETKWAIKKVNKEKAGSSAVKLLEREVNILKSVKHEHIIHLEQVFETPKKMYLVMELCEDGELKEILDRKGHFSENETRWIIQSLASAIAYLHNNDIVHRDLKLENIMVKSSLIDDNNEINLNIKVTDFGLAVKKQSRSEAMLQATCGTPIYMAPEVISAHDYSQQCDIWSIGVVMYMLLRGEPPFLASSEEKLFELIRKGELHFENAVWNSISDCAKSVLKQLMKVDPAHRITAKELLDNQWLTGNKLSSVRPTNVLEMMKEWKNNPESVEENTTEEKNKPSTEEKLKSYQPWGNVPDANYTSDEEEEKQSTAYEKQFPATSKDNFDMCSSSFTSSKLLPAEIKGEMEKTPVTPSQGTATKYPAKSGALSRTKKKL
UniProt O95835, sequence (whole entry, looked up): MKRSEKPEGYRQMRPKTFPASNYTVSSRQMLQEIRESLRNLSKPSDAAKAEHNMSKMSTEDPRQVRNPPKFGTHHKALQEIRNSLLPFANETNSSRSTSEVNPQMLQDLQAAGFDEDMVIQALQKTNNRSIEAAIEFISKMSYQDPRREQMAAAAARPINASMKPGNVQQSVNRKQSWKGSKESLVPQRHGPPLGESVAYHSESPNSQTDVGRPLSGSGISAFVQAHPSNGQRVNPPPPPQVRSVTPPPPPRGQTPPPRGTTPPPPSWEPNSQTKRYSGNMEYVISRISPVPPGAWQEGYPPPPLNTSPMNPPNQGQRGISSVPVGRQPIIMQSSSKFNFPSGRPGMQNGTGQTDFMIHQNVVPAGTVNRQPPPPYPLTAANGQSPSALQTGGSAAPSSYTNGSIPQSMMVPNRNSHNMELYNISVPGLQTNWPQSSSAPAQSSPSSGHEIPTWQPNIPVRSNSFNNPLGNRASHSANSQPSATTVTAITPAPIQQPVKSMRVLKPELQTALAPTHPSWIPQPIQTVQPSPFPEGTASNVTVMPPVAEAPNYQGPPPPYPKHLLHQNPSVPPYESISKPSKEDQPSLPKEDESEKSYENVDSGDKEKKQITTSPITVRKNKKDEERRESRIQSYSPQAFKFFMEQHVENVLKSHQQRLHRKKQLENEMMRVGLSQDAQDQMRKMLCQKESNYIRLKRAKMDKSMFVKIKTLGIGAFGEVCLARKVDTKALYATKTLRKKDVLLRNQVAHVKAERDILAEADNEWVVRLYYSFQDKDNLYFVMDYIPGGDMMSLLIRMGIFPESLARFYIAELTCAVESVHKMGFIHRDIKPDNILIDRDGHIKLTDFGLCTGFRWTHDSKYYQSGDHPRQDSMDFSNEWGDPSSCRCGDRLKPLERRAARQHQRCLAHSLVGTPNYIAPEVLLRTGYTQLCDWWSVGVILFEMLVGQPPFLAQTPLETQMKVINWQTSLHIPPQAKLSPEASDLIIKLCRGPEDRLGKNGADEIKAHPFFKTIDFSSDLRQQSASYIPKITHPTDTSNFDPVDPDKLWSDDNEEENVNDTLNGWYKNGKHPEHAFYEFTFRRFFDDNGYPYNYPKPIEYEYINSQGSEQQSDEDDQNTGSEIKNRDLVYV
UniProt Q00535, sequence (whole entry, looked up): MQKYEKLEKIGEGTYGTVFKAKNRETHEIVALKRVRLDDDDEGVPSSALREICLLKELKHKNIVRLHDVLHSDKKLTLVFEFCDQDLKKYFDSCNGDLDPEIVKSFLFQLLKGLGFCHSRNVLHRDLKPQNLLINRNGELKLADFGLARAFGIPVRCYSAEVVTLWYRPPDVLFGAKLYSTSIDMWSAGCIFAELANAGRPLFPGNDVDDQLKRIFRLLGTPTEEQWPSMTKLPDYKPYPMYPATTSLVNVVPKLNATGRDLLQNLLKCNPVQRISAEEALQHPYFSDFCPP
UniProt Q9UIK4, sequence (whole entry, looked up): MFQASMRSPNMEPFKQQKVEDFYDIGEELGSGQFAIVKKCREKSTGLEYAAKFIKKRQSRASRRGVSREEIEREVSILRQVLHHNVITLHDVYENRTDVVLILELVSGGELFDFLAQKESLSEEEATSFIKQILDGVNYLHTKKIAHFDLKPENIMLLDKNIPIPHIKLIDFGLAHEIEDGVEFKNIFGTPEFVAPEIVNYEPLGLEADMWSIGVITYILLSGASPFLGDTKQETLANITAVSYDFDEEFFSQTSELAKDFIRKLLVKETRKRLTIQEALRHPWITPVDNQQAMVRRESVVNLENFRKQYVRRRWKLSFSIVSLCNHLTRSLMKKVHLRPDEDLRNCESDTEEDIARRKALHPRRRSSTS
UniProt O94804, sequence (whole entry, looked up): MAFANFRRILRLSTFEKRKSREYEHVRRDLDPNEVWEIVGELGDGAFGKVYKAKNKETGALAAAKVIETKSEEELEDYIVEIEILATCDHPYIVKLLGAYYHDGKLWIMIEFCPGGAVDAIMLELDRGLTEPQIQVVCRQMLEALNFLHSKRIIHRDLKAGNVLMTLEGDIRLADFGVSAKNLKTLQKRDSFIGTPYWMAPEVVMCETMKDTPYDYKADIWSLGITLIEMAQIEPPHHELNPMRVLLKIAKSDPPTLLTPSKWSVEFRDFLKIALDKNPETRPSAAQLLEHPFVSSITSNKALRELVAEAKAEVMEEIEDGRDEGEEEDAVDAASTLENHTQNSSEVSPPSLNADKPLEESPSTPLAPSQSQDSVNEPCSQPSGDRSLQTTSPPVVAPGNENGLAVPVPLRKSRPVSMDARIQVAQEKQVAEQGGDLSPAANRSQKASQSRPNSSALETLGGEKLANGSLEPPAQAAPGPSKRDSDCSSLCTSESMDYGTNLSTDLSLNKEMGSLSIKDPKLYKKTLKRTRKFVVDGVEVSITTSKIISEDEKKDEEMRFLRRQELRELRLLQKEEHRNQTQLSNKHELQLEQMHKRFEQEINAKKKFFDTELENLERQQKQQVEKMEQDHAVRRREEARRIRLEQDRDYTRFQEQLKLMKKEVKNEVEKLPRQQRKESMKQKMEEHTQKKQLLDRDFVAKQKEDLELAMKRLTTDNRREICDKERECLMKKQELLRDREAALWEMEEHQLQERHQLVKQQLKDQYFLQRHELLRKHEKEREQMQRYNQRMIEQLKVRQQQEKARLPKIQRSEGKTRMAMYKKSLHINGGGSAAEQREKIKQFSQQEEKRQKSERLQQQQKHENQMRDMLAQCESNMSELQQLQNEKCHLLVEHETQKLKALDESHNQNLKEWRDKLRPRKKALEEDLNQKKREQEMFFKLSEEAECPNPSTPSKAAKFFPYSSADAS
UniProt P53671, sequence (whole entry, looked up): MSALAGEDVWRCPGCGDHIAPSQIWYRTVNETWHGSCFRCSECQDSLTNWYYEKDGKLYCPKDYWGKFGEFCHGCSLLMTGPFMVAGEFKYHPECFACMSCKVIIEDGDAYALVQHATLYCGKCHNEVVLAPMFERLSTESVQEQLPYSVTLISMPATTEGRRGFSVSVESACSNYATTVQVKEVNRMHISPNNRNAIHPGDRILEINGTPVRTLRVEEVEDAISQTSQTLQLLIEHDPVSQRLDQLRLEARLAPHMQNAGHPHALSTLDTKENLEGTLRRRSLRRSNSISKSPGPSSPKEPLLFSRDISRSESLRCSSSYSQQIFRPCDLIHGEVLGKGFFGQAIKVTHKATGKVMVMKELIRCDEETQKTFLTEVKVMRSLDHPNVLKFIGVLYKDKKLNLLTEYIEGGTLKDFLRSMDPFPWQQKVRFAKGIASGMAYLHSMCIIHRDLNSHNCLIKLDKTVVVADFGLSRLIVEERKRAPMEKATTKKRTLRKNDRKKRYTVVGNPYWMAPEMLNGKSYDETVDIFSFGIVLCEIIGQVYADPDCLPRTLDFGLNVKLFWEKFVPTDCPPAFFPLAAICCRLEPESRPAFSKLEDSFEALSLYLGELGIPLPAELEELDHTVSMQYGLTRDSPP
UniProt O96013, sequence (whole entry, looked up): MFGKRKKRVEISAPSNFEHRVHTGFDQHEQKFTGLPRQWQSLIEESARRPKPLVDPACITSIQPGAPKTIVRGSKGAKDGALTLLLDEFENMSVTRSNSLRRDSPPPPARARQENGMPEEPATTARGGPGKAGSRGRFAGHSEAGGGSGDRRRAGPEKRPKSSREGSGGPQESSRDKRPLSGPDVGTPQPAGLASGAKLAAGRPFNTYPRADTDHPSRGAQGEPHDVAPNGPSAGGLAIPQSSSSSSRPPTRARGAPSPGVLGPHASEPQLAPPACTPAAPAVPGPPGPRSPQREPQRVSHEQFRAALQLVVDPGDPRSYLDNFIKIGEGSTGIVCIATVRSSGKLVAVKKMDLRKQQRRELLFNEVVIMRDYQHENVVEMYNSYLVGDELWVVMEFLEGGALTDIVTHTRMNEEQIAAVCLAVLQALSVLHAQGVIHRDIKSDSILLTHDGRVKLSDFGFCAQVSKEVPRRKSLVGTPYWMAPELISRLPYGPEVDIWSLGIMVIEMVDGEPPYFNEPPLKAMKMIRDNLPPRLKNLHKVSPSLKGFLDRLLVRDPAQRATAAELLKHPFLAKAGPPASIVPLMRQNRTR

Set 1
SMILES: COc1cc(Nc2c(C#N)cnc3cc(OCCCN4CCN(C)CC4)c(OC)cc23)c(Cl)cc1Cl
Effect on: enzyme activity
Action: inhibitor
Concentration: 0.5 µM
Relative to: control
For TGF-beta receptor type-2 (TGFBR2, Homo sapiens, UniProt P37173): remaining activity read 95.7%.
The remaining activity was 95.4% (Inhibitor of nuclear factor kappa-B kinase subunit beta (IKBKB, Homo sapiens, UniProt O14920)).
The remaining activity was 95.9% (Cyclin-dependent kinase 5, with p25 (CDK5, Homo sapiens, UniProt Q00535)).
The remaining activity was 99% (TGF-beta receptor type-1 (TGFBR1, Homo sapiens, UniProt P36897)).
STE20/SPS1-related proline-alanine-rich protein kinase (STK39, Homo sapiens, UniProt Q9UEW8) — remaining activity: 93.6%.
Death-associated protein kinase 2 (DAPK2, Homo sapiens, UniProt Q9UIK4) — remaining activity: 82.9%.
The remaining activity was 73.8% (cAMP-dependent protein kinase catalytic subunit alpha (PRKACA, Homo sapiens, UniProt P17612)).

Set 2
Cell line: HaCaT
Concentration: 100 µM
Time: 36 h
`CCOC(=O)n1ccn(C)c1=S` has a viability of 87.5%.
`C[N+]1(C)CCCC(OC(=O)C(O)(c2ccccc2)c2ccccc2)C1` (stereo not shown) gave a viability of 91.2%.
`C#C[C@]1(O)CC[C@H]2[C@@H]3CCc4cc(OC)ccc4[C@H]3CC[C@@]21C` has a viability of 25.1%.
The viability of `Nc1ccc(C(=O)O)c(O)c1` is reported as 82.5%.

Set 3
Structure (SMILES): C[C@H](c1ccnc(Nc2nc3ccc(-c4cc(N(C)C)ncn4)cc3[nH]2)c1)N1CCN(C(=O)CC(F)(F)F)CC1
Effect on: cell-free assay
Technique: competition with immobilised ligand
Concentration: 0.1 µM
It gave 85% for remaining binding (TGF-beta receptor type-1 (TGFBR1, Homo sapiens, UniProt P36897)).
For Serine/threonine-protein kinase mTOR (MTOR, Homo sapiens, UniProt P42345): remaining binding read 75%.
The remaining binding was 100% (Mast/stem cell growth factor receptor Kit, autoinhibited (KIT, Homo sapiens, UniProt P10721)).
Inhibitor of nuclear factor kappa-B kinase subunit alpha (CHUK, Homo sapiens, UniProt O15111) — remaining binding: 95%.
The remaining binding was 92% (Serine/threonine-protein kinase WNK2 (WNK2, Homo sapiens, UniProt Q9Y3S1)).
For Serine/threonine-protein kinase 10 (STK10, Homo sapiens, UniProt O94804): remaining binding read 86%.
The remaining binding was 85% (Protein-tyrosine kinase 6 (PTK6, Homo sapiens, UniProt Q13882)).
For Receptor-interacting serine/threonine-protein kinase 4 (RIPK4, Homo sapiens, UniProt P57078): remaining binding read 100%.
It gave 100% for remaining binding (Serine/threonine-protein kinase LATS1 (LATS1, Homo sapiens, UniProt O95835)).
The remaining binding was 88% (LIM domain kinase 2 (LIMK2, Homo sapiens, UniProt P53671)).
Serine/threonine-protein kinase PAK 4 (PAK4, Homo sapiens, UniProt O96013) — remaining binding: 81%.
Receptor-type tyrosine-protein kinase FLT3 (FLT3, Homo sapiens, UniProt P36888, D835H) — remaining binding: 71%.
For Serine/threonine-protein kinase 33 (STK33, Homo sapiens, UniProt Q9BYT3): remaining binding read 100%.
cGMP-dependent protein kinase 2 (PRKG2, Homo sapiens, UniProt Q13237) — remaining binding: 94%.
For Epidermal growth factor receptor (EGFR, Homo sapiens, UniProt P00533, del747-750/T751S): remaining binding read 86%.

Set 4
SMILES: c1ccc2c(-c3nn4c(-c5ccncc5)nnc4s3)c[nH]c2c1
L444P/L444P Gaucher fibroblasts; 4-MUG hydrolysis in lysate; 0.5 µM, 72 h; relative to: vehicle — enzyme activity: 165% and 185% and 169% and 178% and 151% and 233% and 180%.
The enzyme activity was 185% and 241% and 200% and 195% and 197% and 208% and 159% and 190% (alpha-galactosidase (human); healthy dermal fibroblasts; 0.5 µM, with ISRIB; relative to: DMSO without ISRIB).
L444P/L444P Gaucher fibroblasts; 4-MUG hydrolysis in lysate; 0.1 µM, 72 h; relative to: vehicle — enzyme activity: 144% and 128% and 140% and 135% and 149% and 118% and 133% and 121%.
It gave 160% and 159% and 152% and 156% and 167% and 190% for enzyme activity (L444P/L444P Gaucher fibroblasts; 4-MUG hydrolysis in lysate; 0.5 µM, 72 h, without ISRIB; relative to: vehicle).
The enzyme activity was 109% and 112% and 105% and 108% and 100% (wild-type human fibroblasts; GCase activity, 4-MUG hydrolysis lysate; 0.5 µM, 48 h; relative to: vehicle).

Excerpt of the above (set 3):
For Receptor-interacting serine/threonine-protein kinase 4 (RIPK4, Homo sapiens, UniProt P57078): remaining binding read 100%.
It gave 100% for remaining binding (Serine/threonine-protein kinase LATS1 (LATS1, Homo sapiens, UniProt O95835)).
The remaining binding was 88% (LIM domain kinase 2 (LIMK2, Homo sapiens, UniProt P53671)).
